# Measurements collected from several papers.
# Protocols differ between the studies behind these lines.
# Chain of UniProt Q96PY6 (whole entry, looked up): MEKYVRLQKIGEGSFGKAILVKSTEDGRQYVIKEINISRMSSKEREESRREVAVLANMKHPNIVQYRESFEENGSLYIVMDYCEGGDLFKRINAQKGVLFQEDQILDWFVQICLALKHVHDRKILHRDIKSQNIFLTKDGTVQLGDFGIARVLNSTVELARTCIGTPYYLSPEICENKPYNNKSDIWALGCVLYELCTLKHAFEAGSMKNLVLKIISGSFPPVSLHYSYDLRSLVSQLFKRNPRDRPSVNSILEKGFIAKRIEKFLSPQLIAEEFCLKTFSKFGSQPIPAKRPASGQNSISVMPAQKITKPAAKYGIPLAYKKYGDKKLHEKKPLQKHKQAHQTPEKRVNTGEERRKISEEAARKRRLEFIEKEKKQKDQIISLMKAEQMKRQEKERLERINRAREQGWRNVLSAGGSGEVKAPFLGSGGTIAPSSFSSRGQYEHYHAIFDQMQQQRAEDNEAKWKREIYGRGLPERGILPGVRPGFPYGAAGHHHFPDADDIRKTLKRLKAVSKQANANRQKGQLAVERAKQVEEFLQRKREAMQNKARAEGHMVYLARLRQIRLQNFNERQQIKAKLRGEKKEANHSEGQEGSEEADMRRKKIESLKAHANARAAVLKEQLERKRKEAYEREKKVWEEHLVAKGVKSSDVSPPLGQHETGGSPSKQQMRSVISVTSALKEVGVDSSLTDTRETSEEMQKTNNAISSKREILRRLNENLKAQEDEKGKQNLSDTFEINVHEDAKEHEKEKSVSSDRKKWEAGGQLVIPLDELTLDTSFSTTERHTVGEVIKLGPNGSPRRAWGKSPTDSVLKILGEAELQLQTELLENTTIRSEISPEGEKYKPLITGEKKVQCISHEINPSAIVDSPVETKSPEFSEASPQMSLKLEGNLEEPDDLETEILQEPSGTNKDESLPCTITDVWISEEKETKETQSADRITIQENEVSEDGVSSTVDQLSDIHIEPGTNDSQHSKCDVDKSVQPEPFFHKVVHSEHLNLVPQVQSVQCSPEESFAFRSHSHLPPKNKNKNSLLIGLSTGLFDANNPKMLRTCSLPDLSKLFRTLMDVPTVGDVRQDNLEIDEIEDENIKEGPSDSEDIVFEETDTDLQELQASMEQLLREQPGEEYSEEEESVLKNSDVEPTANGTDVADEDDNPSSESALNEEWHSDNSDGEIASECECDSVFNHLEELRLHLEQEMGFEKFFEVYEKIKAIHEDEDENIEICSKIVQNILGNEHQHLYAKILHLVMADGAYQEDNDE
# Chain of UniProt Q06187 (whole entry, looked up): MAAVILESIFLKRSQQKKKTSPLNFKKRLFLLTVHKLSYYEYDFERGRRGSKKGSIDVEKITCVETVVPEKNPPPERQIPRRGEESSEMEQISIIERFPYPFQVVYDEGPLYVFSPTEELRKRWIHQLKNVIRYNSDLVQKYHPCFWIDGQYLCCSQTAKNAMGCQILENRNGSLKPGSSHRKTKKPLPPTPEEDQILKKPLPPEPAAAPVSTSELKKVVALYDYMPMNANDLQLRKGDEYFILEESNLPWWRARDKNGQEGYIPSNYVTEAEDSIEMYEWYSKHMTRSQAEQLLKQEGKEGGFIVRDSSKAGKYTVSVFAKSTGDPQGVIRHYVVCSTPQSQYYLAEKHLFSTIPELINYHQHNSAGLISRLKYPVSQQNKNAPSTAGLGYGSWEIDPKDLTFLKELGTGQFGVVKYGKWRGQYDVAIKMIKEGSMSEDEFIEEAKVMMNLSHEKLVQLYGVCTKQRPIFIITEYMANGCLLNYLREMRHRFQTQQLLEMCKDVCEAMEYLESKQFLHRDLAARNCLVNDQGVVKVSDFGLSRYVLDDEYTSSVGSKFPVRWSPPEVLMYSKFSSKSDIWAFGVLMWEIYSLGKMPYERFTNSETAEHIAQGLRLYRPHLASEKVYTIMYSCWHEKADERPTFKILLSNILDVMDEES
# Chain of UniProt Q96RG2 (whole entry, looked up): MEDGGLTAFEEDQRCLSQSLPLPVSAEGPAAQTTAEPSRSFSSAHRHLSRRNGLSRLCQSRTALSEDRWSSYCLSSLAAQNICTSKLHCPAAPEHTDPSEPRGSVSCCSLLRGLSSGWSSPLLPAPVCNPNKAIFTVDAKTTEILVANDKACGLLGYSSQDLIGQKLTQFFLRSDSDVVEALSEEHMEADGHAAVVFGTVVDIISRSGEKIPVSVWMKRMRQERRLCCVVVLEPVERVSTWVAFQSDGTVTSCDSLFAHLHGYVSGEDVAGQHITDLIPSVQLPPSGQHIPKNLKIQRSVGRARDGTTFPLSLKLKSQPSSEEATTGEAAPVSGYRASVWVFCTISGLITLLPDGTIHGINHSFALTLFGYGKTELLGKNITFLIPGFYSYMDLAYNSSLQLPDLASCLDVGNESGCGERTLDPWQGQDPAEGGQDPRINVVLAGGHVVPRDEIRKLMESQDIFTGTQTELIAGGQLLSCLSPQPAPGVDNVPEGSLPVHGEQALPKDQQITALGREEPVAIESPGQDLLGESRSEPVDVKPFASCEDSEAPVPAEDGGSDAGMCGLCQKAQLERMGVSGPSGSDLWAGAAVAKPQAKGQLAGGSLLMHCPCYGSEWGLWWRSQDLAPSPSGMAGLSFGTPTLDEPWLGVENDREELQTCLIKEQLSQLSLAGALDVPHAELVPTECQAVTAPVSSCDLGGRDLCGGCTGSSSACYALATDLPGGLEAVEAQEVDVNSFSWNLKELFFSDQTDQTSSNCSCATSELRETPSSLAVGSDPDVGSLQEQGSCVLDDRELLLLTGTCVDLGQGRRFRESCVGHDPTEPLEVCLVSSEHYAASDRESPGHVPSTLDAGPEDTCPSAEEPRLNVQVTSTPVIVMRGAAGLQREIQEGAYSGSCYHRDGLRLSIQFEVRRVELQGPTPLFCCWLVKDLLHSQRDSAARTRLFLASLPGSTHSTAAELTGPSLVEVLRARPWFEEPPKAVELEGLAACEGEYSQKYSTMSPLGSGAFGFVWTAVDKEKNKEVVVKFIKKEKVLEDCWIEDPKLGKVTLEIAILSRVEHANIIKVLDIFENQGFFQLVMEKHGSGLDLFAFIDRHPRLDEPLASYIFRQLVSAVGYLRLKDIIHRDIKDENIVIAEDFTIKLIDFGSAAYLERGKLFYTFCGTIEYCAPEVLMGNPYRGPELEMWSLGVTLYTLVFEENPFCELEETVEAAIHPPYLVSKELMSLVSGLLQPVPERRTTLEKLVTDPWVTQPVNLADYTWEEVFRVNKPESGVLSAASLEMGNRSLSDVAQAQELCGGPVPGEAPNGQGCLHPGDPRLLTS
# Chain of UniProt Q9BWU1 (whole entry, looked up): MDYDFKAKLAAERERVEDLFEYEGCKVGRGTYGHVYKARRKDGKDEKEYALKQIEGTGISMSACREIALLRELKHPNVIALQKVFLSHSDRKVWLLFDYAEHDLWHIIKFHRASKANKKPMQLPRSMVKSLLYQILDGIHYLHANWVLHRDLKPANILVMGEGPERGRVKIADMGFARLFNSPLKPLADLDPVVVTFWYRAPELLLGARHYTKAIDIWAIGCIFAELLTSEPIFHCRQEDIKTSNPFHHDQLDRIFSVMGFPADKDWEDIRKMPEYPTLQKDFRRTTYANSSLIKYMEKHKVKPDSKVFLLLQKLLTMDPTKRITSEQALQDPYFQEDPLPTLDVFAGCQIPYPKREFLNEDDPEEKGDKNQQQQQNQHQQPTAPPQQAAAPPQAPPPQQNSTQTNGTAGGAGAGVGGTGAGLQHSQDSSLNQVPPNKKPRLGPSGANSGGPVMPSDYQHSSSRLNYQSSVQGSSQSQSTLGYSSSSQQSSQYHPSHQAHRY
# Chain of UniProt Q99755 (whole entry, looked up): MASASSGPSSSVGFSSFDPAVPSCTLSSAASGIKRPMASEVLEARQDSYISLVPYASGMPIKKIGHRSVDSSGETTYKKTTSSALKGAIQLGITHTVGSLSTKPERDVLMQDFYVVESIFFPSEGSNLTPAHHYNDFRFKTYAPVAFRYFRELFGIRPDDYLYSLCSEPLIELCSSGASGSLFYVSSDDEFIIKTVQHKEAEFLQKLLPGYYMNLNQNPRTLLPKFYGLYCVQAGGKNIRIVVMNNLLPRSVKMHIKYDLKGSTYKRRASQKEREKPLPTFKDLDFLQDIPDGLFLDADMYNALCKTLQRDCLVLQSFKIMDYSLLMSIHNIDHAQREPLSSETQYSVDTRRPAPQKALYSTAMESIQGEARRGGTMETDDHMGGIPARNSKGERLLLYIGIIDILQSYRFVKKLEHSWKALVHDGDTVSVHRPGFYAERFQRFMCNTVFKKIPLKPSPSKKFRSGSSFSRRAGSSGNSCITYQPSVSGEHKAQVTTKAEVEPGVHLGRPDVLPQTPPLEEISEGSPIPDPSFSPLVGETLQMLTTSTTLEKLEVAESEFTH
SMILES,tested on,test,test system,conditions,quantity,value
CCCCC(=O)Nc1ccc(-c2ccc3ncn(CCC)c(=O)c3c2)cn1,"CDK19 (Homo sapiens, UniProt Q9BWU1)","binding, competition with immobilised ligand",,0.5 µM,remaining binding,77%
COc1cc(-c2cncc3c2CN(C)Cc2cc(N4CCNCC4)ccc2-3)cc(OC)c1OC,"PASK (Homo sapiens, UniProt Q96RG2)","enzyme activity, inhibitor",,1 µM,remaining activity,117%
Cc1ccc2c(c1)nc(CCc1cccc3cccnc13)n2-c1ccccc1,,metabolic stability,"rat, liver microsomes","1.5 µM, 10 min",compound remaining,0.19%
CNc1ncc2c(/C=C/C(=O)N3CCC(OC)CC3)nn(Cc3cccc(C(F)(F)F)c3)c2n1,"NEK1 (Homo sapiens, UniProt Q96PY6)","enzyme activity, inhibitor, radiometric",,1 µM,remaining activity,102%
CCn1ccc2c([C@](O)(c3cnc(C(F)(F)F)c(Cl)c3)C3CC3)n(C)nc2c1=O,,nephelometry,aqueous buffer,"30 min, pH 6.5",kinetic solubility,40 to 80 µM
COc1ccc2c(=O)n(C)c(-c3ccccc3)nc2c1,,,"male Sprague-Dawley rat, spleen","oral, 30 mg/kg, 2 h, single dose",concentration,25.9 ng/g
C=CC(=O)N1CCC(COCC(=O)N2CCN(c3nc(-c4cnc(N)nc4C(F)F)nc(N4CCOC[C@@H]4C)n3)CC2)CC1,"PIP5K1A (Homo sapiens, UniProt Q99755)","binding, competition with immobilised ligand",,1 µM,remaining binding,100%
Cc1cc([C@@H](C)Nc2ccccc2C(=O)O)c2nc(N3CCC(F)(F)CC3)c(C#N)c(=O)n2c1,"BTK (Homo sapiens, UniProt Q06187)","binding, competition with immobilised ligand",,1 µM,remaining binding,94%
CCOC(=O)[C@@]12C[C@@H]1[C@@H](n1ccc3c(NC)nc(C#Cc4ccc(Cl)s4)nc31)[C@H](O)[C@@H]2O,,,"male Sprague-Dawley rat, plasma","oral, 3 mg/kg, 1 h",concentration,0.0659 µg/mL
Cc1c(C(=O)O)ccc2c3n(nc12)[C@@H]1[C@H](C3)N(CC2CC2)[C@@]2(C(=O)Nc3cc(Cl)ccc32)[C@H]1c1cccc(Cl)c1F,,,"male rat, plasma",intravenous,Vd,0.28 L/kg
COc1cccc(-c2n[nH]c(SCc3ccccn3)n2)c1OC,,,"female Sprague-Dawley rat, plasma","oral, 100 mg/kg, 30 min, single dose",concentration,98.3 µg/mL
CCn1cc(C2CC2)c2c(CN3CCC(F)(F)CC3(C)C)n(C)nc2c1=O,,nephelometry,aqueous buffer,"30 min, pH 6.5",kinetic solubility,40 to 80 µM
Cc1noc(C)c1Cn1cc(N2C(=O)CN(Cc3cccc(O)c3)C2=O)cn1,,,"male Sprague-Dawley rat, plasma","oral, 30 mg/kg, 15 min",concentration,0.0358 µg/mL
Cn1nc2c(=O)n(C3CC3)cnc2c1[C@](O)(c1cnc(C(F)(F)F)c(Cl)c1)C1CC1,,nephelometry,aqueous buffer,"30 min, pH 6.5",kinetic solubility,80 to 160 µM
O=C(c1ccc(F)cc1)C1CCN(CCn2c(=O)[nH]c3ccccc3c2=O)CC1,,metabolic stability,"rat, liver microsomes",1 h,compound remaining,10.2%

# Excerpt of the above:
SMILES,tested on,test,test system,conditions,quantity,value
Cc1c(C(=O)O)ccc2c3n(nc12)[C@@H]1[C@H](C3)N(CC2CC2)[C@@]2(C(=O)Nc3cc(Cl)ccc32)[C@H]1c1cccc(Cl)c1F,,,"male rat, plasma",intravenous,Vd,0.28 L/kg
CCn1cc(C2CC2)c2c(CN3CCC(F)(F)CC3(C)C)n(C)nc2c1=O,,nephelometry,aqueous buffer,"30 min, pH 6.5",kinetic solubility,40 to 80 µM
